Assay results gathered from unrelated publications.
Values joined by “and” are separate records of one study, mostly repeats; a detail may differ.
Target: Death-associated protein kinase 3 (DAPK3, Homo sapiens, UniProt O43293)

`C=CC(=O)Nc1cccc(-c2cnc3[nH]cc(C(=O)NC(C)(C)C)c3n2)c1` gave an inhibition of -1% and 0% (kinase activity; 0.1 µM).
For `Cc1ccc(-c2c(/C=C(\C#N)C(=O)NC(C)C)n(CCCO)c3ncnc(N)c23)cc1`, the remaining binding was 95% (cell-free assay, competition with immobilised ligand; 1 µM).
For `CN1CCN(Cc2ccc(-c3ccc(CO[C@H]4CCC[C@@H]4NC(=O)c4cc(-c5cnn(C)c5)cnc4N)cc3)cc2)CC1`, the inhibition was 1% (enzyme activity, inhibitor; 0.1 µM).
With `COc1cc(Nc2nccc(-c3cnn4nc(OC)ccc34)n2)cc(C(F)(F)F)c1` the remaining binding was 99% (binding, competition with immobilised ligand; 1 µM).
`Cc1nc2c(F)cc(-c3nc(Nc4ccc(CNC(=O)CCCCCCC(=O)NO)cc4)ncc3F)cc2n1C(C)C` has an inhibition of 69% (enzyme activity, inhibitor; 1 µM).
The inhibition of `NC(=O)C[C@H]1CCc2sc3ncnc(O[C@H]4CC[C@H](N5CCOCC5)CC4)c3c21` is reported as -3% (enzyme activity, inhibitor; 10 µM).
`COc1c(Cl)cccc1Nc1c(-c2ccncc2C#C[C@@]2(C)CCCN2C(=O)/C=C/CN(C)C)[nH]c2c1C(=O)NCC2` has a remaining binding of 100% (binding, competition with immobilised ligand; 3 µM).
`Cc1cnc2nc1Nc1cccc(c1)COC/C=C/COCc1cc(ccc1OCCN1CCOCC1)N2` has a remaining binding of 66% (binding; 0.1 µM).
With `CCn1cc(C(=O)O)c(=O)c2c(N)c(F)c(NC3CCCCC3)cc21` the inhibition was 4.6% (kinase activity; 0.1 µM, added: ATP at Km).
`Nc1ncc(-c2cc(-c3cnn(CC(F)(F)F)c3)ncc2F)nc1C(=O)NC1CNCC(F)C1` (stereo not drawn) gave a remaining activity of 99.6% (enzyme activity; 1 µM; baseline: DMSO control).
The remaining binding of `C=CC(=O)N1CCc2ccc(-n3c(=O)ccc4cnc5ccc(-c6cnn(C)c6)cc5c43)cc21` is reported as 100% (KINOMEscan; 1 µM; baseline: DMSO control).
With `COCC12C(=O)NC3C4(C(OC)CC1O)C1CC5(O)C(OC)C(O)C(OC(C)=O)(C1C5OC(=O)c1ccccc1)C3(O)C(OC)C24` (stereo not drawn) the remaining activity was 107% and 110% (kinase activity, inhibitor, ProQinase kinase profiling; 25 µM; baseline: control).
`CNC1C[S+]2CC[S+]3CC[S+](C1)[Ru-4]321([N]=C=S)[n]2c3ccc(OC)cc3c3c4c(c5cc(F)c[n+]1c5c32)C(=O)NC4=O` (stereo not drawn) gave a remaining binding of 5.7% (KinomeScan; 0.1 µM; baseline: untreated).
With `Cc1cccc(O[C@H]2CCC[C@@H](C(C)CNCc3ccncc3)C2)c1` (relative stereo) the inhibition was -2% (enzyme activity, inhibitor; 1 µM).
For `CNC(=O)C1CCN(c2cc(C)c(F)cc2NC(=O)c2ccc(-c3cc(O)ccc3C)c(C)c2)CC1`, the remaining binding was 95% (binding, competition with immobilised ligand; 1 µM).
